Published values from different studies.
± marks the error that the study gave.
Cell line: HCT-116

`CCCN1CCN(c2ccc3[nH]c(-c4ccc5[nH]c(-c6ccc(C(F)(F)F)cc6)nc5c4)nc3c2)CC1` has a growth percent of -83.3% (SRB; 10 µM, 48 h).
With `O=C(O)c1ccc(Nc2c(-c3ccccc3)nc3cc(-c4ccccc4)ccn23)cc1` the synergy score was 9.1 (cell viability; 72 h, added: camptothecin; direction not given).
With `NC(=O)NOCCCCCCCCCCCCCCCC[P+](c1ccccc1)(c1ccccc1)c1ccccc1.O=C([O-])C(F)(F)F` the cell confluence was 15.8% (cell growth, live-cell imaging; 0.8 µM, control at 90% confluence).
The IL-6 level of `O=[N+]([O-])c1cc(I)c(O)c(C=NNc2ccccc2)c1` is reported as 42% (ELISA; culture supernatant; IC50, added: LPS).
For `NC(=O)NOCCCCCCCCCC[P+](c1ccccc1)(c1ccccc1)c1ccccc1.O=C([O-])C(F)(F)F`, the cell confluence was 1.53% (cell growth, live-cell imaging; 100 µM, control at 90% confluence).
For `O=[N+]([O-])c1ccc(O)c(C=NNc2ccc(Br)cc2)c1`, the TNF-alpha reduction was 50.6% (ELISA; IC50, added: LPS).
`COc1nc(NCc2cn(-c3ccc(C(=O)Nc4ccccc4)cc3)nn2)nc(OC)n1`: “cell cycle phase %G2-M” 3.57% (flow cytometry; IC50, 24 h).
`Cc1cc(=O)[nH]c(=O)n1Cc1cn(-c2c3ccccc3nc3ccccc23)nn1` has a growth percentage of 63.1% (NCI60 single-dose screen; 10 µM).
For `CCCCN1CCN(c2ccc3[nH]c(-c4ccc5[nH]c(-c6ccc(OCC)c(OCC)c6)nc5c4)nc3c2)CC1`, the growth percent was -79.7% (SRB; 10 µM, 48 h).
With `COc1cccc2c1C(=O)c1c(O)c3c(c(O)c1C2=O)C[C@@](O)(C(=O)CO)C[C@@H]3O[C@H]1C[C@H](N)[C@H](O)[C@H](C)O1` the maximal cytotoxicity was 99.3% (WST-1; concentration not given, 72 h, highest tested concentration).
For `Cc1cc(C)n(C(=S)[S][Au][PH](CCCCCC[PH]([Au][S]C(=S)n2nc(C)cc2C)(c2ccccc2)c2ccccc2)(c2ccccc2)c2ccccc2)n1`, the log10 TGI was greater than -4 (cell growth, NCI-60 screen; colon cancer).
`O=[N+]([O-])c1cc(Br)c(O)c(C=NNc2ccc(C(F)(F)F)cc2)c1` gave a TNF-α level of 66.5% (ELISA; culture supernatant; IC50, added: LPS).
Under “lowest effective concentration”, `Cn1ncc2c(NC(P(=O)(O)O)P(=O)(O)O)nc(-c3cccc(C(=O)Nc4ccc(C(F)(F)F)cc4)c3)nc21` is recorded as no more than 100 nM (Rap1A prenylation, inhibitor, Western blot).
`COc1cccc2c1C(=O)c1c(O)c3c(c(O)c1C2=O)C[C@@](O)(C(=O)CO)C[C@@H]3O[C@H]1C[C@H](N)[C@H](O)[C@H](C)O1` — result for “cells in S phase”: 28.9% (flow cytometry; 3.66 µM (IC50), 72 h).
For `COc1nc(NCc2cn(-c3ccc(C(=O)Nc4ccc(C(F)(F)F)cc4)cc3)nn2)nc(OC)n1`, “apoptotic cells Early” read 13.7% (annexin V-FITC/PI; IC50, 24 h).
For `NC(=O)NOCCCCCCCCCCCC[P+](c1ccccc1)(c1ccccc1)c1ccccc1.O=C([O-])C(F)(F)F`, the cell confluence was 90.3 ± 2.97% (cell growth, live-cell imaging; 0.3 µM, control at 90% confluence).
With `CC(=NN=C1SC(C)C(=O)N1C)c1c(O)c2ccccc2oc1=O` (centres unmarked) the selectivity index was greater than 2.23 (cell growth, MTT; relative to: IC50 BJ-1 over HCT-116).
With `CCN(CC)c1ccc(C=NNC(=O)CSc2nc3ccccc3c(=O)n2Cc2ccc(S(N)(=O)=O)cc2)c(O)c1` the TGI was greater than 100 µM (NCI five-dose screen).
For `Cc1cc(C)n(-c2nc(-c3ccc(Cl)cc3)c3c(NC(=O)c4ccccc4)nnc-3[nH]2)n1`, the cell growth was 84.8% (SRB; 10 µM, NCI60 single-dose screen, colon cancer; relative to: untreated).
Under “cells in S phase”, `O=[N+]([O-])c1cc(Br)c(O)c(C=NNc2ccccc2)c1` is recorded as 17.7% (Muse cell cycle; IC50, 24 h).
The selectivity index of `CC(=NN=c1sc(N=Nc2ccc(C)cc2)c(C)n1C)c1c(O)c2ccccc2oc1=O` is reported as greater than 1.81 (cell growth, MTT; relative to: IC50 BJ-1 over HCT-116).
With `CCOC(=O)CSc1nc(-c2ccc(Cl)cc2)c2c(NC(=O)c3ccccc3)nnc-2[nH]1` the cell growth was 99.3% (SRB; 10 µM, NCI60 single-dose screen, colon cancer; relative to: untreated).
`CCCN1CCN(c2ccc3[nH]c(-c4ccc5[nH]c(-c6ccc(OCC)c(OCC)c6)nc5c4)nc3c2)CC1` has a growth percent of -83.4% (SRB; 10 µM, 48 h).
The growth percentage of `CCCC(CCC)C(=O)OCc1cn(-c2c3ccccc3nc3ccccc23)nn1` is reported as 65.5% (NCI60 single-dose screen; 10 µM).
`COc1cnc2cccc(N3CCc4c(cc(Cn5ccnc5C)cc4-c4cn(C)nc4C(F)(F)F)C3=O)c2c1` gave an EC50 of 11.9 µM (cell growth, inhibitor; 120 h).
`O=C(NOC[C@H](O)CO)c1ccc(F)c(F)c1Nc1ccc(I)cc1F` has a viability of 19% (5 µM, 72 h).
With `O=C(/C=C/C=C/C=C/C1CCCCC1)NC1=C[C@@](O)(/C=C/C=C/C=C/C(=O)NC2=C(O)CCC2=O)[C@@H]2O[C@@H]2C1=O` the GI50 was 19.6 µM (cell growth, CellTiter-Glo; 78 h).
For `NC(=O)NO`, the cell confluence was 31.9 ± 5.77% (cell growth, live-cell imaging; 200 µM, control at 90% confluence).
`Cn1cnc2c(F)c(Nc3ccc(Br)cc3F)c(C(=O)NOCCO)cc21` has a viability of 26.4% (5 µM, 72 h).
`NC(=O)NOCCCCCCCCCCCCCCCCCCCC[P+](c1ccccc1)(c1ccccc1)c1ccccc1.O=C([O-])C(F)(F)F` gave a cell confluence of 34 ± 2.7% (cell growth, live-cell imaging; 0.25 µM, control at 90% confluence).
`CC(=NN=c1scc(C)n1C)c1c(O)c2ccccc2oc1=O` gave a selectivity index of greater than 3.68 (cell growth, MTT; relative to: IC50 BJ-1 over HCT-116).
`NC(=O)NOCCCCCCCCCCCCCC[P+](c1ccccc1)(c1ccccc1)c1ccccc1.O=C([O-])C(F)(F)F` gave a cell confluence of 9.07% (cell growth, live-cell imaging; 1.5 µM, control at 90% confluence).
`O=P1(C2CCCCC2)CCCCC1`: “early apoptotic cells” 2.2% (annexin V/PI flow cytometry; IC50, 72 h).
The cell confluence of `NC(=O)NOCCCC[P+](c1ccccc1)(c1ccccc1)c1ccccc1.O=C([O-])C(F)(F)F` is reported as 80.8% (cell growth, live-cell imaging; 400 µM, control at 90% confluence).
With `CSc1nc(-c2ccc(Cl)cc2)c2c(NC(=O)c3ccccc3)nnc-2[nH]1` the cell growth was 97.3% (SRB; 10 µM, NCI60 single-dose screen, colon cancer; relative to: untreated).

Some of these lines once more:
With `CCN(CC)c1ccc(C=NNC(=O)CSc2nc3ccccc3c(=O)n2Cc2ccc(S(N)(=O)=O)cc2)c(O)c1` the TGI was greater than 100 µM (NCI five-dose screen).
For `Cc1cc(C)n(-c2nc(-c3ccc(Cl)cc3)c3c(NC(=O)c4ccccc4)nnc-3[nH]2)n1`, the cell growth was 84.8% (SRB; 10 µM, NCI60 single-dose screen, colon cancer; relative to: untreated).
Under “cells in S phase”, `O=[N+]([O-])c1cc(Br)c(O)c(C=NNc2ccccc2)c1` is recorded as 17.7% (Muse cell cycle; IC50, 24 h).
